Assay results collected from several papers.
A part holds a random share of what one study measured. Substitutions count along the parent as printed.

Study 1
Molecule: PhoQ, residues 284 288 289 292 302 303 TLSLKA
Method: Sort-seq
Refers to: YFP reporter
Sample: E. coli
Setting: PhoQ-PhoP variant library
Together with: 10 µM Mg2+
Reference: high Mg2+ state
Direction: higher = stronger signaling
target | fold induction
PhoP, residues 12 14 15 18 19 TPWTL (Escherichia coli, UniProt P23836) | 97.9
PhoP, residues 12 14 15 18 19 LHHYF (Escherichia coli, UniProt P23836) | 1.68
PhoP, residues 12 14 15 18 19 NFFVT (Escherichia coli, UniProt P23836) | 2.18
PhoP, residues 12 14 15 18 19 VGHWL (Escherichia coli, UniProt P23836) | 0.648

Study 2
Target: Sal-like protein 4, full length isoform A (SALL4, Homo sapiens, UniProt Q9UJQ4, residues 1-1053)
Chain of UniProt Q9UJQ4 (whole entry, looked up): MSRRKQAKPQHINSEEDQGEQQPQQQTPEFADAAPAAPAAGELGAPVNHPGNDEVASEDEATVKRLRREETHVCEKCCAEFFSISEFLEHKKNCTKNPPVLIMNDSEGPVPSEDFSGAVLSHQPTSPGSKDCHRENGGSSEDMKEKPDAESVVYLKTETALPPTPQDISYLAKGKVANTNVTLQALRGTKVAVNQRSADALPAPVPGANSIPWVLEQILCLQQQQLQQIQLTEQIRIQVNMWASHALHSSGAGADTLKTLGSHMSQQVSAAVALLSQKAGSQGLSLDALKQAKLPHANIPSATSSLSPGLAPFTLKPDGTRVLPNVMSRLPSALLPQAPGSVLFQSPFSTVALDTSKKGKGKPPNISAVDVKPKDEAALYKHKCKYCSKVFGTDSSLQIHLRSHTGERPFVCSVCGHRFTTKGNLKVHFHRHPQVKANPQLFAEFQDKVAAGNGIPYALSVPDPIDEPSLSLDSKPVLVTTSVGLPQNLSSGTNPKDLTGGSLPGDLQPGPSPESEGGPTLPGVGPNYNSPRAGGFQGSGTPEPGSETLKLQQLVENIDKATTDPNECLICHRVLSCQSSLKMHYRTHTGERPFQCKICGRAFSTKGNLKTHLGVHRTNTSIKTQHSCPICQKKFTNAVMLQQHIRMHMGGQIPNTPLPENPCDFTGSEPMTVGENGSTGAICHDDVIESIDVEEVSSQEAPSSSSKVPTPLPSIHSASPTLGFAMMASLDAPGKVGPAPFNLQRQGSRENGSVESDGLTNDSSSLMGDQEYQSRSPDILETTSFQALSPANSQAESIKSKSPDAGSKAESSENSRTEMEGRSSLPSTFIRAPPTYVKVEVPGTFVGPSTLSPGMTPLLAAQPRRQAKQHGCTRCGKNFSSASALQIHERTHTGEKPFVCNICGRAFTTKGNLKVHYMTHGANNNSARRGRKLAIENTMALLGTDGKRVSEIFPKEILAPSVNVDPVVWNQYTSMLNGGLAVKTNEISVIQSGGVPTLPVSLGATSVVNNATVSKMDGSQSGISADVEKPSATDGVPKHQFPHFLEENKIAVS
Method: universal PBM
Molecule type: double-stranded DNA, one strand shown
Sample: in vitro
Tested at: 600 nM
Setting: 8-mer, flanks averaged, mean of replicates
Direction: higher = stronger binding
Strand | E-score
CATACCGG | -0.148
TGCTCACA | -0.0825
ACTCCTAC | -0.0363
AGCGTATC | -0.105
ACTGGAAT | 0.053
CTGCCGTC | -0.31
CGTTCCCC | -0.211
CCGCTCCG | -0.253
ATCCTGCG | -0.151
AAGGTCAG | -0.147
GAGAAGCC | -0.285
GCGAGGCC | -0.398
CAAATCGC | -0.132

Study 3
Target: ABI1, truncated, D143A, DHFR fusion (Arabidopsis thaliana)
Method: DHFR PCA, deep sequencing
Sample: yeast
Setting: methotrexate growth selection, single substitutions
Together with: (+)-ABA 0.11 µM
Reference: wild-type fitted maximum
Direction: higher = stronger binding
Parent: PYL1, truncated, DHFR fusion (Arabidopsis thaliana); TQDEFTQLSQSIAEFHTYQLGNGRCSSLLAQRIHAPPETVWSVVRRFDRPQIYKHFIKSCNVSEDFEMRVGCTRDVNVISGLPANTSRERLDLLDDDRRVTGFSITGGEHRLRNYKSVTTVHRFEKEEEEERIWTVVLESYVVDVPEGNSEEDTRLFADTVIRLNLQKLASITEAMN; partner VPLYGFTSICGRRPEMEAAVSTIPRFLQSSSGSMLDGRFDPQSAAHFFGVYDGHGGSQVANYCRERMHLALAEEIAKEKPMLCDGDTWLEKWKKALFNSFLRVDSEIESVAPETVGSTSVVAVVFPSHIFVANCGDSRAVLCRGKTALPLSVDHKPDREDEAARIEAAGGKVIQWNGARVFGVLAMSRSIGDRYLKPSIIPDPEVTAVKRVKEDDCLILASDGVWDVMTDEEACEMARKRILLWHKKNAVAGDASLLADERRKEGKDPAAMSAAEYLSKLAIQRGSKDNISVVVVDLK
Change | relative binding score [%]
S59Y | 20.8
Y141K | -7.79
E109Q | 8.88
V40L | -1.6
I12R | 3.01
H122E | -1.62
D75A | 12.9
T101N | -3.44
I105L | -8.47
W41D | -4.45
K58P | 24.1
G102M | -2.61
D153V | -1.26

Study 4
Target: CCND1, cyclin fold, Cln2 fusion (human)
Method: yeast growth competition, sequencing
Sample: yeast
Setting: strong parent motif
Reference: not given
Direction: higher = stronger binding
Parent: INSM1 docking peptide (human); PKAIRKLHFEDEV
Change | normalised enrichment score
F9M | 0.673
L7E | 0.127
E12H | 4.36
E10W | 0.976
L7I | 2.86
E10F | 2.71
L7W | -0.295
E12A | 4.23
L7Y | 0.0995
K2A | 3.32
A3S | 1.9
D11A | 3.51
I4Q | 4.02
I4C | 5.33
F9P | 0.0828

For quick reference, copied from above (study 3):
Change | relative binding score [%]
I105L | -8.47
G102M | -2.61
